# Measured values from different studies.
# Every numbered part comes from another study and shows a few of its results, in no order. Several values in a cell are separate wells, animals, samples, runs or records.
# Sequence of UniProt Q9UEE5 (whole entry, looked up): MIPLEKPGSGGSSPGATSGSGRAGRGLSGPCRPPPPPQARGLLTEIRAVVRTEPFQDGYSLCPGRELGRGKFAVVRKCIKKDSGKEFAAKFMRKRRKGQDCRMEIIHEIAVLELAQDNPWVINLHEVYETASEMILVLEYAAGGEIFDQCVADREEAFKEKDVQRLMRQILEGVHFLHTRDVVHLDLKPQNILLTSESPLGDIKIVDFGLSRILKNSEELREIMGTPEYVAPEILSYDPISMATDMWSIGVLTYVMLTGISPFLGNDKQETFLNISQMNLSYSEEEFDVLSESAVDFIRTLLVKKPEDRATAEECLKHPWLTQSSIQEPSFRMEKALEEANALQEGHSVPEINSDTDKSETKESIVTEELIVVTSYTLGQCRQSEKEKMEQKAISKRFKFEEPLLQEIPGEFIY
# Sequence of UniProt P54762 (whole entry, looked up): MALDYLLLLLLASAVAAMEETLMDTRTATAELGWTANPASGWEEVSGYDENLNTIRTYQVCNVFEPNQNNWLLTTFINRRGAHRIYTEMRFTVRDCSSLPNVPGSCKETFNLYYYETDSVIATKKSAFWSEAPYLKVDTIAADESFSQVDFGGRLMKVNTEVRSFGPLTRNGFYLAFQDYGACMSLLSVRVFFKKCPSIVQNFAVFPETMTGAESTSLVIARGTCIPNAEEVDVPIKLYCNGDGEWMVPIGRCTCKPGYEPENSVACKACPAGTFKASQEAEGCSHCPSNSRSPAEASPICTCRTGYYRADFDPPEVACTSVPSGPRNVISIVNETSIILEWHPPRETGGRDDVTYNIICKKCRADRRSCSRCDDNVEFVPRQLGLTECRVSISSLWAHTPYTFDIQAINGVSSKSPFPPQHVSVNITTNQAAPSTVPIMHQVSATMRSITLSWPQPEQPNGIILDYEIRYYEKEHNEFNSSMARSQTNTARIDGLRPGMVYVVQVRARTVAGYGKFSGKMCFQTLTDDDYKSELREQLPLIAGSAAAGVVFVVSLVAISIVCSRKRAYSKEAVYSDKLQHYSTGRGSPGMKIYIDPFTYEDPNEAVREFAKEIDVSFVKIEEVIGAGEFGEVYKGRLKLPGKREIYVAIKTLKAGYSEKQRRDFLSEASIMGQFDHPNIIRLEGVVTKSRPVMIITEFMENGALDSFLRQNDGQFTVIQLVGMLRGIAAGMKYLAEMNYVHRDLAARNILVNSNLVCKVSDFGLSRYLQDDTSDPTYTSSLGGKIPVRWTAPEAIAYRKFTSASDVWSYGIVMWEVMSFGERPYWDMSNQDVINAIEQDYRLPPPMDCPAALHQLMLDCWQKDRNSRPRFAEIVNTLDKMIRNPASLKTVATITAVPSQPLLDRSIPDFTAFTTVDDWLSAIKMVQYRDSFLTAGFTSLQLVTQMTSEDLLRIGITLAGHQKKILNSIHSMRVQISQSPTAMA
# Sequence of UniProt P30530 (whole entry, looked up): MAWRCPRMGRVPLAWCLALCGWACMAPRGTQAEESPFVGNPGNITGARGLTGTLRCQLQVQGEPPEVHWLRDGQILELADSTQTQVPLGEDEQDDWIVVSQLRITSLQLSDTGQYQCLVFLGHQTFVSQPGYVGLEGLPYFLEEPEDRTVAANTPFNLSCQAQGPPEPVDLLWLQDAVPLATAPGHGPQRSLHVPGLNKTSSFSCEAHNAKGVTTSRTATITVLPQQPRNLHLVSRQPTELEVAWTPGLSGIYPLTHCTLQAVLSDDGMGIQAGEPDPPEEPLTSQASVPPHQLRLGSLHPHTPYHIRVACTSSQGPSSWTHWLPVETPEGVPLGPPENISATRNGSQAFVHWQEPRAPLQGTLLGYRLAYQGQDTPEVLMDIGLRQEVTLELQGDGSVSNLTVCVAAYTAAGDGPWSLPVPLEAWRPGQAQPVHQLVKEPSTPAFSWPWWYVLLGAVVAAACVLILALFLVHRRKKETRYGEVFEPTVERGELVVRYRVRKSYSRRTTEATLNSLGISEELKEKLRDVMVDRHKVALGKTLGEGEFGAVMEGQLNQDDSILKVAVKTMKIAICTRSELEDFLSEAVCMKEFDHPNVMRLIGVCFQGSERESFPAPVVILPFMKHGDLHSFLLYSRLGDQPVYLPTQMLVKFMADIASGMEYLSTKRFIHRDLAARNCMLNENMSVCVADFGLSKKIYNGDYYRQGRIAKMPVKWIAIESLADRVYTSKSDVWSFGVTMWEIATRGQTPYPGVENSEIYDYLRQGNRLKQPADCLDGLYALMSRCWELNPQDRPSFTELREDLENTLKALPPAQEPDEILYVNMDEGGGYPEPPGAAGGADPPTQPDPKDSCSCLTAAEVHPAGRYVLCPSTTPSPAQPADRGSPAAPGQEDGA
# Sequence of UniProt Q9UK32 (whole entry, looked up): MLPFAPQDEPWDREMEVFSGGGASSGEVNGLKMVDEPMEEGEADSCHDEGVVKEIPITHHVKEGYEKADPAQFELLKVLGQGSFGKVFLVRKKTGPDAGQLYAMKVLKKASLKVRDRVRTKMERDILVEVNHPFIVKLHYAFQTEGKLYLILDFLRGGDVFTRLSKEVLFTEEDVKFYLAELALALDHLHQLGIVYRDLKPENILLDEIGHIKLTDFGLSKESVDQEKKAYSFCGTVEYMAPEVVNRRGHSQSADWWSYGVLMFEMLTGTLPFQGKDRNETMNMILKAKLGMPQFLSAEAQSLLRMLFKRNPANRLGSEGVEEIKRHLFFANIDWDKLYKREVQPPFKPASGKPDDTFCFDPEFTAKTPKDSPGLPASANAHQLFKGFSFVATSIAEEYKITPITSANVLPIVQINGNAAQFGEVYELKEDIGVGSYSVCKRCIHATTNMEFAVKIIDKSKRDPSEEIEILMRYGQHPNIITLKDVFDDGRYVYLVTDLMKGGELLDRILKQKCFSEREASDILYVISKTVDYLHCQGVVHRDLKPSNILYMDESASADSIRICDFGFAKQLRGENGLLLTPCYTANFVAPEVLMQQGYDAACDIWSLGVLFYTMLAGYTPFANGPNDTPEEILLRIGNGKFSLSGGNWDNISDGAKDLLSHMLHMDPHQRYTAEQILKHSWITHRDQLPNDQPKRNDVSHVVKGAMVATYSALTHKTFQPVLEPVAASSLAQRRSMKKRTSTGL
# Sequence of UniProt P06493 (whole entry, looked up): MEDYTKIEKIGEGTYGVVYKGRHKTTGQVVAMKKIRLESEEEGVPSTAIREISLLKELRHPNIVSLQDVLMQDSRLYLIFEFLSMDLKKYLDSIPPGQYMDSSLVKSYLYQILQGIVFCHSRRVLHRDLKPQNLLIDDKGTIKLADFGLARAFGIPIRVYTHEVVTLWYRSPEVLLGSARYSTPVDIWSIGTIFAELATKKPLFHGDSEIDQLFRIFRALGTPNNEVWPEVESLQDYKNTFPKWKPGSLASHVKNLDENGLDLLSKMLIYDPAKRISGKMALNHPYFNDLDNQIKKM
# Sequence of UniProt Q8NE63 (whole entry, looked up): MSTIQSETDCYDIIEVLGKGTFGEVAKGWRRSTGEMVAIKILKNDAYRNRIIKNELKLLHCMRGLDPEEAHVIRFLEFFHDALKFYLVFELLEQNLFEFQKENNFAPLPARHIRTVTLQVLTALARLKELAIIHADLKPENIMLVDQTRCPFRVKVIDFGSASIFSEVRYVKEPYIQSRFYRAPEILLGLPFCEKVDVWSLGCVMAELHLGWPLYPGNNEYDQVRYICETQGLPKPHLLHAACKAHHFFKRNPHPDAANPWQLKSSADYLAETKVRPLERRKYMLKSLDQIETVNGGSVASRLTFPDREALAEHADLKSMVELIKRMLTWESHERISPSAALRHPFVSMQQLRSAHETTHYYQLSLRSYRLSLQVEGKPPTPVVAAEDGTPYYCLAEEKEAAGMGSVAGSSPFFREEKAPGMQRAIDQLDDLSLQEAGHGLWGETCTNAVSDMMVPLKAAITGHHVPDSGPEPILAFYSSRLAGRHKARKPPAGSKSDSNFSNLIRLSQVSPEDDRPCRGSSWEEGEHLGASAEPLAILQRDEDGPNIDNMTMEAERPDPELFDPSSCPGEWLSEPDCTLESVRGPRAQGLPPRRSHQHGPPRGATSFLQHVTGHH
# Sequence of UniProt P51451 (whole entry, looked up): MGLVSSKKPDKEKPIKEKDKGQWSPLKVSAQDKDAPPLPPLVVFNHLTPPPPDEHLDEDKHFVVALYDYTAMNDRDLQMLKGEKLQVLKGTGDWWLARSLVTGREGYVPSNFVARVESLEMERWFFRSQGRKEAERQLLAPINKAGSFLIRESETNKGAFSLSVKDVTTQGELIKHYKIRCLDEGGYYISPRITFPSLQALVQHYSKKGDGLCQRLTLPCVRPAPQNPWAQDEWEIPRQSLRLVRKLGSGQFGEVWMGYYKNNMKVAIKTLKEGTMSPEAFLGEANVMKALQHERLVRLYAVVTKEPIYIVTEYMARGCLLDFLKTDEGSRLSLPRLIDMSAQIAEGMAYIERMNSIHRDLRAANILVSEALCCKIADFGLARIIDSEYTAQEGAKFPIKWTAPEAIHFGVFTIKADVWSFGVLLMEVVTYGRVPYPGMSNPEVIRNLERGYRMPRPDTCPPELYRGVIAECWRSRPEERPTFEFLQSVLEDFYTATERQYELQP
# Sequence of UniProt Q00534 (whole entry, looked up): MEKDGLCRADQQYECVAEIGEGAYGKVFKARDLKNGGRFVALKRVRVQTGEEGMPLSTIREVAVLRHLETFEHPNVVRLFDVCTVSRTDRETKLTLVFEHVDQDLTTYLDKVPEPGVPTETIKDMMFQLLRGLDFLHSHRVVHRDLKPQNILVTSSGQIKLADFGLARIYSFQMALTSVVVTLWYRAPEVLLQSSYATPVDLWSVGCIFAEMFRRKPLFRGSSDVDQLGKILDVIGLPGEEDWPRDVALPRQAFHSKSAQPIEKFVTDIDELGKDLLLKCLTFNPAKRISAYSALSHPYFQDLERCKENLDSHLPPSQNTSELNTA

# Study 1
# Compound: O=C(Nc1cccnn1)N1CC(CC=Cc2cncc(Oc3ccc(C(F)(F)F)cn3)n2)C1
# Tested at: 1 µM
cell line,system,setting,scale,viability
sample BA colorectal tumour organoid,,,relative to: DMSO,94.2%
sample D normal epithelium organoids,human patient-derived organoids,,relative to: DMSO control,106% and 94.6%
colorectal tumour organoids,,,relative to: DMSO,107%
sample I colorectal tumour organoid,,replicate 1,relative to: DMSO,102%
sample I colorectal tumour organoid,,replicate 2,relative to: DMSO,125%
sample C colorectal tumour organoid,,replicate 2,relative to: DMSO,103%
sample B colorectal tumour organoid,,replicate 1,relative to: DMSO,123%
sample B colorectal tumour organoid,,replicate 2,relative to: DMSO,118%
sample C colorectal tumour organoid,,replicate 1,relative to: DMSO,96.2%

# Study 2
# SMILES: Cc1nc2cc3nc(-c4cccs4)cnc3cc2n1C
# Read-out: enzyme activity
# Mode: inhibitor
# Tested at: 0.5 µM
# Relative to: control
target,remaining activity
"STK16 (Homo sapiens, UniProt O75716)",95.2%
"Cyclin-dependent kinase 1, with cyclin B (CDK1, Homo sapiens, UniProt P06493)",96.7%
"CAMK2B (Homo sapiens, UniProt Q13554)",101%
"AXL (Homo sapiens, UniProt P30530)",109%
"TSSK2 (Homo sapiens, UniProt Q96PF2)",98.2%
"WNK3 (Homo sapiens, UniProt Q9BYP7)",96.9%
"EPHB4 (Homo sapiens, UniProt P54760)",92.1%
"EPHA4 (Homo sapiens, UniProt P54764)",93.1%
"MAP4K4 (Homo sapiens, UniProt O95819)",84.5%
"BLK (Homo sapiens, UniProt P51451)",99.8%
"HIPK2 (Homo sapiens, UniProt Q9H2X6)",107%
"ABL1 (Homo sapiens, UniProt P00519)",80.4%
"PHKG1 (Homo sapiens, UniProt Q16816)",98.2%
"Cyclin-dependent kinase 6, with cyclin D3 (CDK6, Homo sapiens, UniProt Q00534)",87.8%
"MAPKAPK3 (Homo sapiens, UniProt Q16644)",102%
"Cyclin-dependent kinase 4, with cyclin D3 (CDK4, Homo sapiens, UniProt P11802)",101%
"HIPK4 (Homo sapiens, UniProt Q8NE63)",103%
"DYRK3 (Homo sapiens, UniProt O43781)",111%
"RPS6KA6 (Homo sapiens, UniProt Q9UK32)",88.5%
"STK17A (Homo sapiens, UniProt Q9UEE5)",80.5%
"EPHB1 (Homo sapiens, UniProt P54762)",107%
"RPS6KA5 (Homo sapiens, UniProt O75582)",109%
"PDPK1 (Homo sapiens, UniProt O15530)",106%

# Study 3
# Species: human
# Medium: microsomes or S9
# Tested at: 2 µM
# Time: 0.5 h
Compound,remaining compound [%]
Cc1c(NC(=O)CCC(=O)N(c2ccccc2)c2ccccc2)c(=O)n(-c2ccccc2)n1C,49.2
CCOC(=O)c1c(C)nc2c(c3c(n2Cc2ccc(OC)cc2)CCC3)c1-c1ccc2c3c(ccnc13)CCO2,0.393
Cc1cnc(-c2nc(NCCc3ccncc3)ncc2-c2onc(C)c2C)cn1,68
Nc1oc(=O)c2ccccc2c1N1CCCc2ccccc21,54.4
COCCNS(=O)(=O)c1cc(C(=O)O)cc(-c2cccc(F)c2F)c1,> 99
CCOc1ccc(/N=c2\cc(C)c(C#N)c3[nH]c4ccccc4n23)cc1,> 100
O=C(O)CC1CCC(c2ccc(-c3ccc(C(=O)NCCC(=O)Nc4nc(-c5cc(F)c(F)cc5F)cs4)cn3)cc2)CC1 (stereo not drawn),72.8
CC(C)(C)N1CC(C(=O)NCCOc2ccc(-c3ccccc3)cc2)CC1=O (stereo not drawn),24.5
c1ccc2c(c1)OCC(c1csc(C3COc4ccccc4O3)n1)O2 (stereo not drawn),78
CCc1ccccc1NC(=O)Cn1nc2n(C)c(=O)c3ccc(C(=O)NC(C)CC)cc3n2c1=O (stereo not drawn),78.7
CC(C)(C)OC(=O)C1C(=O)CC(C)(O)C(C(=O)OC(C)(C)C)C1c1cccnc1 (stereo not drawn),54.6
O=C(Cn1ccccc1=O)N1C[C@@H]2CC[C@H](C1)N(Cc1cscn1)C2=O,86.7

# Study 4
# Organism: Sarcocystis neurona
# Read-out: parasite growth
# Tested at: 10 µM
# Notes: secondary screen
SMILES,inhibition [%]
NC(=O)N1c2ccccc2CC(=O)c2ccccc21,52.9
CN(C)CCC=C1c2ccccc2COc2ccccc21,-21.4
CC[C@@]1(O)C(=O)OCc2c1cc1n(c2=O)Cc2cc3c(CN(C)C)c(O)ccc3nc2-1,-38.8
COc1ccc(CN2CCN(C(c3ccc(F)cc3)c3ccc(F)cc3)CC2)c(OC)c1OC.Cl.Cl,52.5
CCc1nn(CCCN2CCN(c3cccc(Cl)c3)CC2)c(=O)n1CCOc1ccccc1,58.9
COc1ccc(/C=C/C(=O)Nc2ccccc2C(=O)O)cc1OC,32.1
CC(=O)O[C@]1(C(C)=O)CC[C@H]2[C@@H]3C[C@H](C)C4=CC(=O)CC[C@]4(C)[C@H]3CC[C@@]21C,-40.4

# Some of these lines once more (study 1):
cell line,system,setting,scale,viability
sample C colorectal tumour organoid,,replicate 2,relative to: DMSO,103%
sample B colorectal tumour organoid,,replicate 1,relative to: DMSO,123%
sample B colorectal tumour organoid,,replicate 2,relative to: DMSO,118%
